Published values from different studies.
Numbered parts are unrelated; each lists some results of a single study.
UniProt O14757, sequence (whole entry, looked up): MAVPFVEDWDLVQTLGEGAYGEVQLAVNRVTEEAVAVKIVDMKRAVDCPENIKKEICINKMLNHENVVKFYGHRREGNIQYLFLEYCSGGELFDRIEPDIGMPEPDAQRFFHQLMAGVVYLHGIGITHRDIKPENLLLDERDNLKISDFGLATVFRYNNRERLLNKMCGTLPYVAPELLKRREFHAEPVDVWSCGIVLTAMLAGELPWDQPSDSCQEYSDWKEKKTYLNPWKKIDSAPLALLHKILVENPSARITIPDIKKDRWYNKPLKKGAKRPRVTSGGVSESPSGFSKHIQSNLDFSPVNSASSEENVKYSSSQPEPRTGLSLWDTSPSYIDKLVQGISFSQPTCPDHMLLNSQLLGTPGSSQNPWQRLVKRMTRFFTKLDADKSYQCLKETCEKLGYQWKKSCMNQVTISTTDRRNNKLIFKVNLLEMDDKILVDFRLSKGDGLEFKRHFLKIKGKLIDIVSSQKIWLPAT
UniProt O00141, sequence (whole entry, looked up): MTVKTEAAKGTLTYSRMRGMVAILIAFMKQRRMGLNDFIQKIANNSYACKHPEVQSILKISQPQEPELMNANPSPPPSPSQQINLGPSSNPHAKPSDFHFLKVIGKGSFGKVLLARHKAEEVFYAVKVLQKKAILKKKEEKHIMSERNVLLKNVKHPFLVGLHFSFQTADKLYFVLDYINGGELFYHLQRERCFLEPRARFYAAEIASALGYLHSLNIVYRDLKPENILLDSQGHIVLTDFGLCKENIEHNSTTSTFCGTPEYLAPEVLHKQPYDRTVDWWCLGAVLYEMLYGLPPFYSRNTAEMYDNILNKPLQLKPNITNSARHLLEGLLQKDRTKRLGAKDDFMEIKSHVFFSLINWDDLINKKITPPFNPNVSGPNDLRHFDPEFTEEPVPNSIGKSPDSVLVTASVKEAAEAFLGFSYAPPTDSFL
UniProt Q8TDR2, sequence (whole entry, looked up): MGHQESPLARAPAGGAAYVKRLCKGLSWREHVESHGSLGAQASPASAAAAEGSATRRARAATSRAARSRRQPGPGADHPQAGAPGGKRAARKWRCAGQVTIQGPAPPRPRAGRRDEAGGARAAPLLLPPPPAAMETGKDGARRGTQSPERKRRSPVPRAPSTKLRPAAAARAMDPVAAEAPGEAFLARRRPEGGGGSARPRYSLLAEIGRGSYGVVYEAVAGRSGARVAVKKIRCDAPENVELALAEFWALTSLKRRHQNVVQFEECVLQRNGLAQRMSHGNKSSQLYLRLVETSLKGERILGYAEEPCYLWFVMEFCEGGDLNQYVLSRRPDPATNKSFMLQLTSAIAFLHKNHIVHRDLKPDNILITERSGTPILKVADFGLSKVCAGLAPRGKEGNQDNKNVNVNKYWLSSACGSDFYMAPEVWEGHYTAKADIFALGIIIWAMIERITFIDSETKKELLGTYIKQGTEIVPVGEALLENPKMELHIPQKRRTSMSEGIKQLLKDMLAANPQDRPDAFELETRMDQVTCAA
UniProt P21127, sequence (whole entry, looked up): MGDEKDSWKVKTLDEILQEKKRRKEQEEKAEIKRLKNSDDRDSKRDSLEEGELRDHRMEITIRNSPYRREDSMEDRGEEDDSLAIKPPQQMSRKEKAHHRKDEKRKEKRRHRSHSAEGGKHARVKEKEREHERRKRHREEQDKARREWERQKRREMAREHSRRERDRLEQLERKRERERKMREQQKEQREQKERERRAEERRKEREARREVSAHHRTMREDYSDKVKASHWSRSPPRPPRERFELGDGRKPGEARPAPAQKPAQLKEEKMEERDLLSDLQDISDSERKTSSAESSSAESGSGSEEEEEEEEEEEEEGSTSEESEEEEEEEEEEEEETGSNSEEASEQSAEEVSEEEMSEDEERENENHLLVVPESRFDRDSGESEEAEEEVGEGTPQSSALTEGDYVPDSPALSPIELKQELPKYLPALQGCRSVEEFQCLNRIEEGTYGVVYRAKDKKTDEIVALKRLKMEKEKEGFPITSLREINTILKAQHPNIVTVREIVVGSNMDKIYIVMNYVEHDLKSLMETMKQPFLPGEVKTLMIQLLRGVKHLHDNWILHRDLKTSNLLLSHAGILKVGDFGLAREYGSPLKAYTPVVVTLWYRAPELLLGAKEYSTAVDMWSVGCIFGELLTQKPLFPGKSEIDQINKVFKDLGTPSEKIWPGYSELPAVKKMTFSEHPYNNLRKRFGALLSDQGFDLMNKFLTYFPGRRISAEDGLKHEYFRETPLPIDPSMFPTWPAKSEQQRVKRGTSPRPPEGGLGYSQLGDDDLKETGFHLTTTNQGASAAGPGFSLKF
UniProt P23458, sequence (whole entry, looked up): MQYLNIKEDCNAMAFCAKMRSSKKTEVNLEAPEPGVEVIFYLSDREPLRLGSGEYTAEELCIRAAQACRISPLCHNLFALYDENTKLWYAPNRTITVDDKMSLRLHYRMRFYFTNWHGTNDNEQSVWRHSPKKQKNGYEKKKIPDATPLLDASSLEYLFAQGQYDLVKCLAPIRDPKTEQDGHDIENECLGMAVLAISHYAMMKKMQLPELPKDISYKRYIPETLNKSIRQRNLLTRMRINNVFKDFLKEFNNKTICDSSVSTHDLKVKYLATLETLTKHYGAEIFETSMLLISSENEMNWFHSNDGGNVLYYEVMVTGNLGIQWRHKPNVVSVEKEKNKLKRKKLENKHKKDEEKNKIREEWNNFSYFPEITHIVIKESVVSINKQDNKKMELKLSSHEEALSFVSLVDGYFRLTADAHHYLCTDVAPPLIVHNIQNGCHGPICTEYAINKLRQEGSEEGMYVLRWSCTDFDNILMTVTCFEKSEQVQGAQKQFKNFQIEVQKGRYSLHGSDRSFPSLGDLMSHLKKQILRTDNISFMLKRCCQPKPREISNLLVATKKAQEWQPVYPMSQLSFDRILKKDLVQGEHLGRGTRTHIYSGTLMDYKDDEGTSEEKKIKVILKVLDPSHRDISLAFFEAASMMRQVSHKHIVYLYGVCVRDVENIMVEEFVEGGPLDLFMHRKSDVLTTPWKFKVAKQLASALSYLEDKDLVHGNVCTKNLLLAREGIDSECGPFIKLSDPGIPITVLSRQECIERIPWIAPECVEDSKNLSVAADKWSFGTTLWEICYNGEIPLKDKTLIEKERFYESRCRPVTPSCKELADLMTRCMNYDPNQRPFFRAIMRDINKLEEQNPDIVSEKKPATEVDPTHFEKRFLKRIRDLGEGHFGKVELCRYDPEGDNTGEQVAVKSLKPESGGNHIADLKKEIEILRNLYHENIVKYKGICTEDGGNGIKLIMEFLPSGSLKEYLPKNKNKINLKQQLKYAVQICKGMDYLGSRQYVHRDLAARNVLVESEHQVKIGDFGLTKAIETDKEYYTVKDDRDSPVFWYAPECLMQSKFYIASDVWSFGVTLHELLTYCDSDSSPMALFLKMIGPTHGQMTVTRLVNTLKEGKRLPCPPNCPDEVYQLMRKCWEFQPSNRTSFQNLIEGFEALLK
UniProt Q9Y6E0, sequence (whole entry, looked up): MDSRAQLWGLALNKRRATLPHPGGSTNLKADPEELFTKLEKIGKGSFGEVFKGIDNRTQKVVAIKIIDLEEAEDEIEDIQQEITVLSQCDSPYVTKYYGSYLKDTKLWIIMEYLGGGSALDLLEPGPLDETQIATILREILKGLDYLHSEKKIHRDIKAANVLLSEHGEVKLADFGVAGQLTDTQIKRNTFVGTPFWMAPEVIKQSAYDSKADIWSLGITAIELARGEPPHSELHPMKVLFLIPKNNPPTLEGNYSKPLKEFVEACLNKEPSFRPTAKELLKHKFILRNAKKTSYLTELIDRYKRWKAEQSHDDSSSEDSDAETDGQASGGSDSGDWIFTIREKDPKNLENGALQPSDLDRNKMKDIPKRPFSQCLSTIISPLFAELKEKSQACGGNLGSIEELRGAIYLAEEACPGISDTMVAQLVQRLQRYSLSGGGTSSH

Series 1 — method: Phase 2a trial; host: idiopathic pulmonary fibrosis patients
Structure (SMILES): CC(C)n1cnc(-c2ccc(F)cc2)c1-c1ncc(C(=O)Nc2ccc(N3CCN(C)CC3)cc2)[nH]1
The “patients with adverse events” was 0% (refers to: blood creatine phosphokinase increased; 60 mg once daily, grade 2 maximum intensity).
It gave 0% for “patients with adverse events” (refers to: urinary tract infection; 30 mg once daily, grade 5 maximum intensity).
The “patients with adverse events” was 0% (refers to: muscular weakness; dose not given, grade 3 maximum intensity, all arms).
The “patients with adverse events” was 0% (refers to: weight increased; 30 mg once daily, grade 3 maximum intensity).
It gave 0% for “patients with adverse events” (refers to: back pain; 30 mg once daily, grade 3 maximum intensity).
The “patients with adverse events” was 0% (refers to: weight increased; dose not given, grade 4 maximum intensity, all arms).
For refers to: urinary tract infection; 60 mg once daily, grade 4 maximum intensity: “patients with adverse events” read 0%.

Series 2 — action: inhibitor; concentration: 10 µM; baseline: control
Target: Diamine acetyltransferase 1 (Homo sapiens, UniProt P21673)
Construct (P21673 1-171): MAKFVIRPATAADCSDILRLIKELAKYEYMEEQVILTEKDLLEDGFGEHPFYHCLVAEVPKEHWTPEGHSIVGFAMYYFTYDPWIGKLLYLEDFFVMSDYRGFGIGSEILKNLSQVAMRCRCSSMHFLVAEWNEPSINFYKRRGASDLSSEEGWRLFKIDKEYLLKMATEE
`COc1ccc(-c2cc(=O)c3c(OC)c(OC)c(OC)c(OC)c3o2)cc1` has a remaining activity of 97.5%.
The remaining activity of `CC(C)CC(N)C(=O)O` (racemic) is reported as 101%.
`CCCCCCCCCCCCCC(=O)OC` gave a remaining activity of 97.4%.
With `Oc1cc(O)c2c(c1)O[C@H](c1ccc(O)c(O)c1)[C@H](O)[C@H]2c1c(O)cc(O)c2c1O[C@H](c1ccc(O)c(O)c1)[C@@H](O)C2` the remaining activity was 103%.
`CC1(O)CCOC(=O)C1` (racemic) gave a remaining activity of 90.7%.

Series 3 — read-out: enzyme activity; action: inhibitor; concentration: 0.5 µM; baseline: control
Target: Tyrosine-protein kinase ZAP-70 (ZAP70, Homo sapiens, UniProt P43403)
UniProt P43403, sequence (whole entry, looked up): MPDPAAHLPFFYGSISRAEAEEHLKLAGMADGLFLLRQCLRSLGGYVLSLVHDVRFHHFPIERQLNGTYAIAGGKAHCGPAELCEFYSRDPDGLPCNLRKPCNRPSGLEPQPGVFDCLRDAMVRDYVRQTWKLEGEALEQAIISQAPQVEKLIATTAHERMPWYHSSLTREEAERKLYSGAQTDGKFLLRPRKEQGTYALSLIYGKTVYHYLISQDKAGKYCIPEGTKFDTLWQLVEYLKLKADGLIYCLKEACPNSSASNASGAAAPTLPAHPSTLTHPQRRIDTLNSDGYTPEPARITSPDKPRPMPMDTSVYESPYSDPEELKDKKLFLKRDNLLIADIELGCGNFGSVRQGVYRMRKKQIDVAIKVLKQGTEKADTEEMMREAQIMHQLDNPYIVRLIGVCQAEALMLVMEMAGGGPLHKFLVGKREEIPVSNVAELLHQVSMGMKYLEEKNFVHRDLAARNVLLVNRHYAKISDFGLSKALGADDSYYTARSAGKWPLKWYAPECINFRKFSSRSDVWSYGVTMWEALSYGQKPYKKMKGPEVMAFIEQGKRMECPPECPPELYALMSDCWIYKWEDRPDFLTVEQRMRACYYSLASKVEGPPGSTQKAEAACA
With `COc1cc2nccc(Oc3ccc(NC(=S)NC(=O)c4ccccc4C)cc3)c2cc1OC` the remaining activity was 97%.
`COc1ccc(C(=O)Nc2sc3c(c2C(N)=O)CCCC3)cc1OC` gave a remaining activity of 95.6%.
With `COc1ccc(OC)c2c(=S)c3ccccc3[nH]c12` the remaining activity was 100%.
With `COc1ccc(CNC(=O)Nc2ncc([N+](=O)[O-])s2)cc1` the remaining activity was 102%.
The remaining activity of `Nc1ccc2ncnc(NCCc3ccc(Oc4ccccc4)cc3)c2c1` is reported as 93.2%.
`CNC(=O)c1cc(Oc2ccc(NC(=O)Nc3ccc(Cl)c(C(F)(F)F)c3)cc2)ccn1` has a remaining activity of 97.8%.
With `O=C1NC(=O)C(c2cn(CCCn3ccnc3)c3ccccc23)=C1Nc1ccccc1` the remaining activity was 104%.
With `Cn1sc(=O)n(Cc2ccccc2)c1=O` the remaining activity was 102%.
With `O=C(CCCc1ccc(-c2ccccc2F)cc1)Nc1ccc(O)cc1` the remaining activity was 99.7%.
With `CO[C@H]1C[C@@H]2CC[C@@H](C)[C@@](O)(O2)C(=O)C(=O)N2CCCC[C@H]2C(=O)O[C@H]([C@H](C)C[C@@H]2CC[C@@H](O)[C@H](OC)C2)CC(=O)[C@H](C)/C=C(\C)[C@@H](O)[C@@H](OC)C(=O)[C@H](C)C[C@H](C)/C=C/C=C/C=C/1C` the remaining activity was 99.2%.

Series 4 — read-out: cell-free assay; method: competition with immobilised ligand; concentration: 1 µM
SMILES: COc1cccc(CNC(=O)c2nc3scc(COCc4ccc(C(=O)O)cc4)c3c(=O)[nH]2)c1
CDK11B (Homo sapiens, UniProt P21127) — remaining binding: 85.4%.
SGK1 (Homo sapiens, UniProt O00141) — remaining binding: 93.4%.
It gave 76% for remaining binding (Tyrosine-protein kinase JAK1, JH2 (JAK1, Homo sapiens, UniProt P23458)).
It gave 95.5% for remaining binding (CHEK1 (Homo sapiens, UniProt O14757)).
The remaining binding was 93.6% (STK35 (Homo sapiens, UniProt Q8TDR2)).
It gave 100% for remaining binding (STK24 (Homo sapiens, UniProt Q9Y6E0)).
